Assay results collected from several papers.
Parts stem from different laboratories: compare values within a part only.

Block 1 — method: protein-binding microarray; form: double-stranded DNA, one strand shown; sample: in vitro; concentration: 2200 nM top; notes: 60-bp whole probe; together with: salmon DNA 0.4 mg/ml; baseline: random background probes; direction: higher = stronger binding; all sequences stand within: GCCTAGCAC … GTCTTGATTCGCTTGACGCTGCTG
Target: Interferon regulatory factor 7, full length, phosphomimetic (IRF7, Homo sapiens, UniProt Q92985, residues 1-503, S471D/S472D/S475D/S476D/S477D/S483D/S484D/S487D)
Residues (chain): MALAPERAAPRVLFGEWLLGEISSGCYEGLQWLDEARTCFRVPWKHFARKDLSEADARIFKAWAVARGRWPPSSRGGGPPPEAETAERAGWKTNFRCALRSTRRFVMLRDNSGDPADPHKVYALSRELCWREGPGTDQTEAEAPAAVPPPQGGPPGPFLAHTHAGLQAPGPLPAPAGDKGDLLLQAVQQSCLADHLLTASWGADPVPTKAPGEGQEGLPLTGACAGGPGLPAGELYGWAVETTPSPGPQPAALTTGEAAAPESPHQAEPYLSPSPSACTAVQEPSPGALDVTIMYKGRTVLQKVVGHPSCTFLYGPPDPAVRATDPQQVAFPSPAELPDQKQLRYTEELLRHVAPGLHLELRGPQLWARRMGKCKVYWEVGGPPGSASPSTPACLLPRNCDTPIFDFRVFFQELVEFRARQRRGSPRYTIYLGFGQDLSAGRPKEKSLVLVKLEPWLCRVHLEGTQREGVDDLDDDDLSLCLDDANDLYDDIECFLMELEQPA
Oligonucleotide	fitted relative affinity [z-score]
TTAGGTCTCCTTATCCTTTGGTGCTAG	0.849
GACGGTATCGGTCTCGGGACGTGCTAG	0.00494
TCAGTTTTCATTATTGCACTGTGCTAG	3.12
TCAGTTTTCTCTCCCATACTGTGCTAG	3.12
TGAGGTATCCTTCTCCTTTAGTGCTAG	0.843
CTCCTTCAGTATCCTTAGATGTGCTAG	1.71
TCATACATGGGTATAGAACTGTGCTAG	0.243
TCACTTCTGGGCTGTTTGACTGTGCTA	1.2
ACTGATCACCGATTTCCTTCAGTGCTA	1.49
CTTCCCCTCTAGGTTCTCTGAGTGCTA	1.25
GACGGTATCGGGATTGGGGACGTGCTA	-0.238
GAGGGTATCGACTTTCGGGACGTGCTA	2.52
TTAGGCCTGCTTATCCTTTAGTGCTAG	0.367
GGAAGCTTCTTTTTTATTCTGTGCTAG	1.01
TTGGATTCCAGTTTCGATTAGTGCTAG	6.99
TCAGGAAATGGGAAACCCACTGTGCTA	-0.555
TCATTTTCATTTTCCAAACTGTGCTAG	8.02
GGTGCCTCGGGTTCAGGGAGGTGCTAG	-0.719
AAGGTTACCCATCTCAAGTAGTGCTAG	0.379
TTAGGTATCAGTTTCGGTTAGTGCTAG	7.5
TTAGAACTGGTGACTGGATTAGTGCTA	-0.389
TTATGTTTCCTTTCCCTTTAGTGCTAG	5.86
GTAAGCAAAAATGATTGGTTGTGCTAG	-0.546
TTAGATTTCGGGCCTGGATTAGTGCTA	0.557
TTAGTACTGAGTATCGATTAGTGCTAG	0.379

Block 2 — method: RNAcompete; form: RNA; sample: in vitro; concentration: 20 nM; notes: 7-mer, probes averaged, single round; baseline: mean of 7-mers; direction: higher = stronger binding
Target: PABPC1L2, full length, GST fusion (mouse, UniProt A0ABA7IW68)
Oligonucleotide	7-mer Z-score
UCCGGAC	-0.307
GCAAUAA	0.443
CAUGCAC	-0.012
UCGGAUG	-0.148
UAACCAG	-0.0808
AUGUCGC	-0.387
CCUAUUU	-0.322
GUGCCUA	-0.121
UCACUUG	-0.0718
UUGCAAU	-0.215
UAAAGAA	1.72
UACGGAG	-0.0446
CUCAGUA	-0.173
UUCUGAU	-0.432
CACAUCC	-0.211
CCCAAGG	0.017
CUAGAAA	1.84
ACUUCGA	-0.0844
AAAACAG	8.77
AACUGAG	0.0569
GAUAUCC	-0.282
GAGGUCU	-0.0844
UACGAGG	0.0334
AGGUACA	0.0605
GAUUGAC	-0.15

Block 3 — method: RNA Bind-n-Seq; form: RNA; sample: in vitro; concentration: 20 nM; notes: 6-mer, flanks averaged, single round; together with: 150 mM KCl; baseline: input library; direction: higher = stronger binding
Target: TAR DNA-binding protein 43, full length, His tag (TARDBP, Homo sapiens, UniProt Q13148, residues 1-414)
Oligonucleotide	6-mer enrichment (R)
AAGUCA	0.601
UCGAUA	0.577
CAUGCG	0.981
AUGACA	0.702
UAUAGC	0.628
UCCCGC	0.61
ACGGUU	0.705
UAAAGG	1.02
GAAGCA	0.894
AUAUAA	0.713
UCGUUG	0.686
GAUCCU	0.613
AAUCGA	0.599
AUAUCU	0.548
UUUUUU	0.948
CAGCCG	0.859
ACAUAA	0.671
AAUAAC	1.05

Block 4 — method: RNA Bind-n-Seq; form: RNA; sample: in vitro; concentration: 365 nM; baseline: no-protein control; direction: higher = stronger binding
Target: RNA binding protein fox-1 homolog 2, RRM domain, GST-SBP tag (RBFOX2, Homo sapiens, UniProt O43251-10, residues 100-194)
Notes: natural RNA segment, single round, ends assumed
Residues (chain): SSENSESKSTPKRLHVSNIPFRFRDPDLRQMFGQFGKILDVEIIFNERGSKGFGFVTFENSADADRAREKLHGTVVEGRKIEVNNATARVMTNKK
Oligonucleotide	RBNS enrichment (R)
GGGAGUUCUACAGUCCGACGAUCAGGAUUGGUACUCAUUAAUUAUGUCUUGCAAAUAUUUUCUAAAAAUUCAACCACUCUCCUAAAAUGGUGUUUAAAUAUUUUGUAGGGCAGAAUAUGCAUAUUGCCUGUUAUGGAAUUCUCGGGUGCCAA	3.69
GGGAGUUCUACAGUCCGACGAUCAGCAGAAUAGCUUUGUGCUAUUCCAGUAUAAGAUGAACUGUAAUAAUUUUUGACUUCCCUAUUUCAGAGAUAGUCAAUAUAAUAUGUUUAUCUAUAUCCAUAUGGAUGGAUGGAAUUCUCGGGUGCCAA	0.26
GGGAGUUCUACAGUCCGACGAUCCCCUAUUGGGAUGGACCGCUGGACAGCAAUGCUCGAGUUUGUGAAUUUGGAGAGAUACUCAAAAGAGCUAAAACUGCAGCAUUUUACCUUUAAAUGCAGUGCCUAGAGAGUGGAAUUCUCGGGUGCCAA	0.622
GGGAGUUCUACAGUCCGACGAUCCUGAGGUCAUAUUUCAGACACCCACCUGACCCUGCCACUCACAGCCGUCGUUUGUUUUCCAUGGAUGCAGAAGUCCAGGUUUCACCAUCUAUUUUCUGUUUUACUCGAUUUGGAAUUCUCGGGUGCCAA	0.488
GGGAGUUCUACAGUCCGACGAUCCAGUCAGCAGCCAAAGACCUAACUCAGUCACCUGAAAUGUCACCAACAACAAUCCAGGUCACAUACCUGCCUUCCAGUCAGAAGAGCAAACGCCCUAAGCACUUCCUGGAUGGAAUUCUCGGGUGCCAA	0.204
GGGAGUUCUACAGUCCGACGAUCCUACUACUACUGAGAAGCUAAUUCUUGACCUGUGAUUGUGAUUGAUUACCUGAUAUCUAGAUAUAUAAUUAUAUGUGUGAAUAAAUGUGACAGAACUUGAUUAUUUCAUCUGGAAUUCUCGGGUGCCAA	0.528
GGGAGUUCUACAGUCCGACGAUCGGUACUUAUAUAAAAUCUAGUCCAGUUCUCUCAUUUAAAAAAAUGAAGACACUGAAAUACAGACUUAAAUAGCUCAGAUAGCUAAUUAGGAAAUUUCAAGUUGGCCAAUAUGGAAUUCUCGGGUGCCAA	0.367
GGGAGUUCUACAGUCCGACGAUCGACCAUGUGCCCAGGGACUGCAGCCAGGUUCACUCUGCUGGGAGAGCUGGCUGGGGGGAAGGGCUUGUUCCCUACAGUGUCUGUUCUGUGAAGUUUGUUACGUGUAAGGGUGGAAUUCUCGGGUGCCAA	0.586
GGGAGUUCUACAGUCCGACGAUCUUUUCUUCAUUCAUUUGGAACCUUAUUUUCGCAAAAAACCUAGCUGGAAUAAUAAUGCCAUAUUGUAUUUUGCACACUGCUUUAUUUUCUAGAGGCUCUGGGAGCAAAUUUGGAAUUCUCGGGUGCCAA	0.552
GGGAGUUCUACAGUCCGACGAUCCGGAUAGCUUACUAAUCUUGGACCUUCUGGCAGCCCAUCCACAGAACCAUCUCUCAUGGUUGUUAGCAAGAUGCCUAACACACUCAAGCAAACUAAGCACUGUCACUUUCUGGAAUUCUCGGGUGCCAA	0.386
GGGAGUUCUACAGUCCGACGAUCAACUCACUGUUCCCCAGCACAGCACAGCUGCAUGACCUCAGCUUCAGACUGAUGUCAGCCAGCCUUCUUGGAACACAUUGCUAUUCAUUGUGGAUGCCACACAGUCCAUCUGGAAUUCUCGGGUGCCAA	0.394
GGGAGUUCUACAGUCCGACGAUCAACUGUUUUCUUUCUUUUUUCCUGUCUCCCUCCCGUCCUUUGUGGUGGGAGGGCAGGAGGCCCAAUGGUUGAAAAUAAGAGGGUUCCCGCCCAGAACUCUUCUUGUGAGAUGGAAUUCUCGGGUGCCAA	0.226

Block 5 — method: protein binding microarray; form: double-stranded DNA, one strand shown; sample: in vitro; concentration: not given; baseline: not given; direction: higher = stronger binding
Target: Histone acetyltransferase KAT6A, winged helix 1, GST fusion (KAT6A, Homo sapiens, UniProt Q92794, residues 1-85)
Notes: 8-mer, flanks averaged, mean of 2 arrays, mostly near background
Residues (chain): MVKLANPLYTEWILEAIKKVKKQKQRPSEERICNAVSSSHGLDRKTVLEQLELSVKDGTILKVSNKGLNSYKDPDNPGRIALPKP
Oligonucleotide	E-score
AGGTCCTA	-0.16
GGCTTCGA	0.111
CGCGACGC	0.429
CCTGCAGC	-0.227
TATCCGAA	0.0505
ATAGCTCC	-0.128
AGCCCAAT	-0.226
ATGGAATG	-0.0285
GTCCCAAA	-0.194
AAGCCCTC	-0.06
AAGATATC	-0.224
GAGGTCCA	-0.146
AAAGTCTT	-0.206
GCAATAGC	0.0256
CTACCGGC	0.271
GCTAGACA	-0.0268
GGGTGAAC	-0.121
CCTTTACA	-0.207
GTCCAAGA	-0.0174
TGCACGCA	0.087
CAATGTAA	0.0359
AGACACAT	-0.188
CCGGCACG	0.293
TATGCATA	-0.0705

Block 6 — method: universal PBM; form: double-stranded DNA, one strand shown; sample: in vitro; concentration: not given; direction: higher = stronger binding
Target: Sal-like protein 4, full length isoform B (SALL4, Homo sapiens, UniProt Q9UJQ4-2, residues 1-616)
Notes: 8-mer, flanks averaged, mean of replicates
Oligonucleotide	E-score
AGAGAGCG	-0.0609
TACCTGCA	-0.0442
ACCGCCCC	-0.274
GTCAGTGA	-0.0396
AGCGGGAC	-0.274
ACAGTACT	0.0521
AGTGCGAG	-0.165
CCGAGAGC	-0.256
AGTATGCG	-0.0529
CGTTCAAG	-0.0666
GGTCAGAA	0.0014
CAATTCGA	0.0398
CGGTGGTA	-0.169
AGGCAGAA	0.0683
CTCACACC	-0.152
ATGGTAAG	0.0562
